Results gathered from unrelated publications.
Numbered parts are unrelated; each lists some results of a single study. Changes are numbered by the printed parent chain.

Sample 1
Target: NFIL3, bZIP domain (human)
Method: DHFR protein complementation
Matrix: yeast
Setting: single substitutions, most at no-binding floor
Reference: wild-type JUN-FOS pair
Direction: higher = stronger binding
Parent: JUN, bZIP domain (human); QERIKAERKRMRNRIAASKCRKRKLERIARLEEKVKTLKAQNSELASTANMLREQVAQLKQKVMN; partner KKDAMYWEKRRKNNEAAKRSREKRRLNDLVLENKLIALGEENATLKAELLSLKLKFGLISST
The binding fitness of `T37R` is reported as -1.46 natural log.
For `R53C`, the binding fitness was -1.13 natural log.
`L31A` gave a binding fitness of -1.52 natural log.
The binding fitness of `A40H` is reported as -1.41 natural log.
The binding fitness of `S47W` is reported as -1.45 natural log.
The binding fitness of `T37V` is reported as -1.37 natural log.
`E32F` has a binding fitness of -1.54 natural log.
The binding fitness of `R30I` is reported as -1.54 natural log.
For `A29I`, the binding fitness was -1.36 natural log.
The binding fitness of `T48D` is reported as -1.48 natural log.
The binding fitness of `N42Y` is reported as -1.56 natural log.
`K39I` has a binding fitness of -1.35 natural log.
`S43Q` has a binding fitness of -1.42 natural log.
The binding fitness of `A57W` is reported as -1.37 natural log.
With `K36H` the binding fitness was -1.56 natural log.
The binding fitness of `A29T` is reported as -1.34 natural log.

Sample 2
Target: CRIPT, C-terminal peptide
Method: DHFR complementation, deep sequencing
Matrix: yeast
Setting: single substitutions, model-inferred values
Reference: wild type
Direction: higher = weaker binding
Parent: ERBIN, PDZ domain 1 (human); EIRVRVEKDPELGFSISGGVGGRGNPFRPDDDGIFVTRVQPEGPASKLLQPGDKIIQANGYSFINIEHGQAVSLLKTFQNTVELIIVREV; partner TKNYKQTSV
`K54R`: “binding free energy change” 0.271 kcal/mol.
`E11N` — result for “binding free energy change”: -0.426 kcal/mol.
`R28D`: “binding free energy change” 0.105 kcal/mol.
Under “binding free energy change”, `E83V` is recorded as 0.107 kcal/mol.
`A45E`: “binding free energy change” 1.49 kcal/mol.
Under “binding free energy change”, `R5H` is recorded as 0.0982 kcal/mol.
`V36H`: “binding free energy change” 0.906 kcal/mol.
For `L12Y`, “binding free energy change” read 0.272 kcal/mol.
`G33L` — result for “binding free energy change”: 1.25 kcal/mol.
Under “binding free energy change”, `I34L` is recorded as 0.536 kcal/mol.
`D9E` — result for “binding free energy change”: 0.177 kcal/mol.
`F63S` — result for “binding free energy change”: 0.796 kcal/mol.
Under “binding free energy change”, `V90A` is recorded as 0.00152 kcal/mol.
`F78S`: “binding free energy change” 0.207 kcal/mol.
For `F78P`, “binding free energy change” read 0.0801 kcal/mol.
Under “binding free energy change”, `F78Q` is recorded as 0.0547 kcal/mol.
For `F78Y`, “binding free energy change” read 0.207 kcal/mol.

Sample 3
Target: ABI1, truncated, D143A, DHFR fusion (Arabidopsis thaliana)
Method: DHFR PCA, deep sequencing
Matrix: yeast
Setting: methotrexate growth selection, single substitutions
With: (+)-ABA 0.032 µM
Reference: wild-type fitted maximum
Direction: higher = stronger binding
Parent: PYL1, truncated, DHFR fusion (Arabidopsis thaliana); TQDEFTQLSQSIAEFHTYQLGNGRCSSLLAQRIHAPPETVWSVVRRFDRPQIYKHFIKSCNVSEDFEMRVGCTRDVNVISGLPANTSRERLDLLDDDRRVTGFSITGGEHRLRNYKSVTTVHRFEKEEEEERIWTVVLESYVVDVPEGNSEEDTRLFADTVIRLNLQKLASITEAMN
Under “relative binding score”, `R155Y` is recorded as -3.5%.
For `L166E`, “relative binding score” read 4.18%.
`T1E`: “relative binding score” 27.6%.
`N177Q` — result for “relative binding score”: 10.7%.
`L29M` — result for “relative binding score”: 4.24%.
Under “relative binding score”, `T154P` is recorded as -2.08%.
`L93E`: “relative binding score” 2.85%.
`F124V`: “relative binding score” 29.6%.
For `G148D`, “relative binding score” read 7.78%.
Under “relative binding score”, `C60D` is recorded as 9.01%.
`T135M`: “relative binding score” -2.99%.
For `E38Q`, “relative binding score” read -1.41%.
`Y53K`: “relative binding score” -5.43%.
`R98P` — result for “relative binding score”: 4.96%.
`L164A` — result for “relative binding score”: 11.4%.
`T17D`: “relative binding score” -5.93%.

Sample 4
Target: CCNB2, cyclin fold, Cln2 fusion (human)
Method: yeast growth competition, sequencing
Matrix: yeast
Setting: weak parent motif
Reference: not given
Direction: higher = stronger binding
Parent: PKN2 docking peptide (human); VSAVRKLDFSDTM; partner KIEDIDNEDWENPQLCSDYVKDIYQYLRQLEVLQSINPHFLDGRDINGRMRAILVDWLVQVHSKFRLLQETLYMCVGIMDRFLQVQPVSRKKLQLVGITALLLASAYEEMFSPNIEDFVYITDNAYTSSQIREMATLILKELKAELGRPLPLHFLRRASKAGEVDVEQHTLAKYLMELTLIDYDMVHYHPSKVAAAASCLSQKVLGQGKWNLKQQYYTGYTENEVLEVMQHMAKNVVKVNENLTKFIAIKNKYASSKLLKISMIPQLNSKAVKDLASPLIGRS
For `R5I`, “normalised enrichment score” read -0.094.
For `D8G`, “normalised enrichment score” read 0.272.
Under “normalised enrichment score”, `L7R` is recorded as 0.512.
`D11L` — result for “normalised enrichment score”: 0.0234.
Under “normalised enrichment score”, `R5M` is recorded as 0.247.
For `S2V`, “normalised enrichment score” read 0.117.
`T12D`: “normalised enrichment score” 1.07.
`T12A` — result for “normalised enrichment score”: 1.15.
`K6S` — result for “normalised enrichment score”: 0.0235.
For `S2H`, “normalised enrichment score” read 0.141.
For `A3I`, “normalised enrichment score” read 3.4.
For `S10L`, “normalised enrichment score” read 0.345.
For `D11V`, “normalised enrichment score” read 0.138.
For `S2Q`, “normalised enrichment score” read 0.465.
`L7I`: “normalised enrichment score” 0.733.
Under “normalised enrichment score”, `S2E` is recorded as 0.359.
`V4K` — result for “normalised enrichment score”: 1.2.
For `S10E`, “normalised enrichment score” read 0.882.
`K6C`: “normalised enrichment score” 0.38.
Under “normalised enrichment score”, `S10Q` is recorded as 0.728.
`F9T` — result for “normalised enrichment score”: 0.203.
`K6Y`: “normalised enrichment score” 0.0972.
Under “normalised enrichment score”, `D11W` is recorded as -0.128.
For `S2P`, “normalised enrichment score” read -0.00075.
For `T12G`, “normalised enrichment score” read 0.947.

Sample 5
Target: Hepatocyte nuclear factor 3-alpha (Foxa1, Mus musculus, UniProt P35582, residues 1-468, full length assumed)
Chain of UniProt P35582 (whole entry, looked up): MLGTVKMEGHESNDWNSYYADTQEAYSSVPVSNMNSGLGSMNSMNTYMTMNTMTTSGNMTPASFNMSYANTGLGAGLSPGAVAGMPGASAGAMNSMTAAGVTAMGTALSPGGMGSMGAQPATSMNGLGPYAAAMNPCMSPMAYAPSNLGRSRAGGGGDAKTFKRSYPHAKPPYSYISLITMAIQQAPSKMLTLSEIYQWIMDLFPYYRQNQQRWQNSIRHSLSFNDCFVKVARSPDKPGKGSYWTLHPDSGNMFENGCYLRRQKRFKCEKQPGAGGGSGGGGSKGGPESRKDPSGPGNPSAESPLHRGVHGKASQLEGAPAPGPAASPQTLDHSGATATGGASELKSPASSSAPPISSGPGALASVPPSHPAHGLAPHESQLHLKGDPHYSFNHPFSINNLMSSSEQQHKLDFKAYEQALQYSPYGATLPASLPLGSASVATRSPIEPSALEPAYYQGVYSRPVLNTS
Method: EMSA with sequencing
Molecule type: double-stranded DNA, one strand shown
Matrix: in vitro
Tested at: 10 and 20 nM
Setting: whole designed probe, mean of two concentrations, ends assumed
Reference: negative control set to 0
Direction: higher = stronger binding
For `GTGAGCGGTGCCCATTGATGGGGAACTCTCCCCGTGTGGCATCAAGGCGGGCTCCCTATAGGAGCTGGTGTGGACGTCCGGGCGTGGGGTTAGGGCGGATGCGGGGATGGCCGGGCGGGTGTTGACATTGTGCTCTCACCAGGCGGATCGCCCCGACCCTCACTCCTGGCGTCTGAGTCTCTGGCGTAGCCCATGCTGAGTGGGCGGCTGGTCCTGGGTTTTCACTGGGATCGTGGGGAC`, “normalised bound fraction” read 0.136 ratio.
Under “normalised bound fraction”, `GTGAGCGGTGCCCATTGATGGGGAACTCGGCCAGCCTGGCTTCTGCGCCCCGCCAGGAGGTCGCGGAGCGGAGCGCGGCCAGGAAGTGAGCTGAGAGTGACAGCTCCCCCCACGCGAGAATAAACAAACATCCACACACTGGCTCTATGACTCATTCTCTTTCTTTCGGGAGGAGGGGAGAAAGGAGCGGGAGGGCGGGCGGGCAGGGGAGAGGCAGGCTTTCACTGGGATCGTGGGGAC` is recorded as 0.383 ratio.
Under “normalised bound fraction”, `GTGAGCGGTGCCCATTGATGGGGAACTAGTTCTTTCTTTTGTTTCCACCTTCTTGGATTCATCAAGTATTTTTTAGTATTCCATTTTATCTCATCTGTTATCTTTTGCTGTATTATTTGTATTTACTTTTGGGATTACAATATGCATCCTTAATTTAGCATGGTCTACTTGAAATTAATAACATACTACTTTGTTGTATAATGTAAGAATTTTACTAATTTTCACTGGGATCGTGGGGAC` is recorded as 0.372 ratio.
For `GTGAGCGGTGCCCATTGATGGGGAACATCTTCCCCCTCTTCCTTGCCCCACCAGCTCACCTACGGGGGTTATTTGCAGATAGGAAAATAAATAAAGCCGGCATTCGTTAACGCAGTTCTGGCGCAAACTGCTGTTTGCTCTGCATCTAACATGGTCCTTACGCGAGGCGTGGCTCCGGGAGAGCAAAGCACCGTGTCAGGCGCATGATCCGGGCTCGCCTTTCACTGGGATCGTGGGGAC`, “normalised bound fraction” read 0.358 ratio.
For `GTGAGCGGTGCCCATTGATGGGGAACAGGCACAAGGTATGAATCACTAAGAATCTAGCAGCAGCTCTAGAAGCCTCCAAAGATAATTGCACTTCCCCAACAGGGGGACGGGGGTGGAGTGTAATTTTGAAAGAACAGTGGATGGCCTAAATCAGTATGTGTCACTCTTTGTAAAGAGCCACAAGTGTTTGACTAGGGAAAAAGGAAAAGAGGCGAGAGTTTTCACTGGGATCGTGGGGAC`, “normalised bound fraction” read 0.0454 ratio.
`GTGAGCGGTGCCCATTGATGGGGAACATCTTCCCCCTCTTCCTTGCCCCACCAGCTCACCTTCCCGGGTTATTTGCAGATAGGAAAATAAATAAAAAAAAAATTCGTTAACCCTCTTCTGGCGCAAACTGCTGTTTGCTCTGGATGAATCATGGTCCTTTGGCGACGCCAGGCTCCGGGAGAGCAAAGCACCGTGTCAGGGCCATGATCCGGGGTGGCCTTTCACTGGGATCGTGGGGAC` — result for “normalised bound fraction”: 0.322 ratio.
Under “normalised bound fraction”, `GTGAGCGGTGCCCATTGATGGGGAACATCTTCCCCCTCTTCCTTGCCCCACCAGCTCACCTACGGGGGTTATTTGCAGATAGGAAAATAAATAAAGCCGGCATTCGTTAACGCAGTTCACGCGCATACTGCTGTTTGCTCTGGATCTAACATGGTCCTTTGGCGAGGCGTGGCTCCGGGAGAGCAAAGCACCGTGTCAGGGCCATGATCCGGGGTGGCCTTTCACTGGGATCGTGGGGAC` is recorded as 0.352 ratio.
`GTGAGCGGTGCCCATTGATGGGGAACTGATGATACGTTATAGCATTTCTCTGCTCTGTAAGAGAGGCACCAGGGTCGTGTGCTGGGTCTGGGGTTTGTCCATTCCACATCCGGTGCTGCTGTTGACTCTGGTGTCGGCCGCTGGTGAGCTGGCTGTAGCTGGTCACCTCTGGGTGGTTTCTGGGGCGGTCGCAGGCTGACTAACACACCAAAGGTCAGCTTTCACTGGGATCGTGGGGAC`: “normalised bound fraction” -0.00374 ratio.

Other studies, line by line
For `YWHAQ (Homo sapiens, UniProt P27348)`, interaction screen read “cross-linked” (YWHAZ (Homo sapiens, UniProt P63104); cross-linking MS; hits only).
The fold induction of `PhoQ, residues 284 288 289 292 302 303 TNSAEL` is reported as 24 (PhoP, residues 12 14 15 18 19 LHATL (Escherichia coli, UniProt P23836); Sort-seq, measured: YFP reporter; E. coli; PhoQ-PhoP variant library, with: 10 µM Mg2+; reference: high Mg2+ state, higher = stronger signaling).
For `MBD3 (Homo sapiens, UniProt O95983)`, cross-linked residues read “K92 to K193” (GATAD2B (Homo sapiens, UniProt Q8WXI9); cross-linking MS; cell fractions; with: DSSO).
Under cross-linked residues, `SNRNP200 (Homo sapiens, UniProt O75643)` is recorded as “T1409 to K59” (PGD (Homo sapiens, UniProt P52209); cross-linking MS; cell fractions; with: DSSO).
`SURF6 (Homo sapiens, UniProt O75683)`: cross-linked residues “K16 to K263” (MYBBP1A (Homo sapiens, UniProt Q9BQG0); cross-linking MS; cell fractions; with: DSSO).

Excerpt of the above (sample 3):
`T135M`: “relative binding score” -2.99%.
For `L166E`, “relative binding score” read 4.18%.
For `G148D`, “relative binding score” read 7.78%.
`N177Q` — result for “relative binding score”: 10.7%.
`T17D`: “relative binding score” -5.93%.
For `E38Q`, “relative binding score” read -1.41%.
`T1E`: “relative binding score” 27.6%.
`L93E`: “relative binding score” 2.85%.
Under “relative binding score”, `T154P` is recorded as -2.08%.
`Y53K`: “relative binding score” -5.43%.
`L164A` — result for “relative binding score”: 11.4%.
